Experimental data from different studies.
Each numbered part is a random draw from the data of one study; scales do not carry over between parts. Changes are numbered by the printed parent chain.

Block 1
Target: CCND3, cyclin fold, Cln2 fusion (human)
Technique: yeast growth competition, sequencing
Sample: yeast
Notes: weak parent motif
Relative to: not given
Direction: higher = stronger binding
Starting sequence: RBL2 docking peptide (human); STTRRRLFVENDS
Change	normalised enrichment score
T2Y	0.0912
R5L	0.19
N11Y	0.157
T2N	0.192
S13Y	0.155
S1E	0.0395
F8N	0.0766
F8P	0.263
R4G	0.079
V9T	0.243
T3K	0.16
N11K	0.124
E10R	0.106
R5N	0.12
R6N	0.158

Block 2
Target: ABI1, truncated, D143A, DHFR fusion (Arabidopsis thaliana)
Technique: DHFR PCA, deep sequencing
Sample: yeast
Notes: methotrexate growth selection, single substitutions
Together with: (+)-ABA 2500 µM
Relative to: wild-type fitted maximum
Direction: higher = stronger binding
Starting sequence: PYL1, truncated, DHFR fusion (Arabidopsis thaliana); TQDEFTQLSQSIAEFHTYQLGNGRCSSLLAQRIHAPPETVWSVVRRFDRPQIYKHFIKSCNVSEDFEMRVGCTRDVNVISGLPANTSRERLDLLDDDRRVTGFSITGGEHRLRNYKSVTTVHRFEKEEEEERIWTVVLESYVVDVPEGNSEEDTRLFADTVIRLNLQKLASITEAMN; partner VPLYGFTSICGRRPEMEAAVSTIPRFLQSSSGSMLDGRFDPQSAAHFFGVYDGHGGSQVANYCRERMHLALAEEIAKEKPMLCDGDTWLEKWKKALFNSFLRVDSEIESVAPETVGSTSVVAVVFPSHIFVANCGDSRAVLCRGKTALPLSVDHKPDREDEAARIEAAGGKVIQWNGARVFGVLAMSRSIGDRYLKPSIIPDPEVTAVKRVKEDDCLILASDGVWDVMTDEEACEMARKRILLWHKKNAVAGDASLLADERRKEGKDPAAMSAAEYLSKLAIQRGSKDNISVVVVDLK
Change	relative binding score [%]
Q19W	91.2
F15I	85
H55M	97.5
F103R	23.1
H122Q	79.5
S87I	49.7
S171L	92.7
G81S	87
T135L	11.6
E109W	87.5
Q31I	74.4
E130G	103

Block 3
Target: Ras GTPase-activating protein-binding protein 1, full length (G3BP1, Homo sapiens, UniProt Q13283)
UniProt Q13283, sequence (whole entry, looked up): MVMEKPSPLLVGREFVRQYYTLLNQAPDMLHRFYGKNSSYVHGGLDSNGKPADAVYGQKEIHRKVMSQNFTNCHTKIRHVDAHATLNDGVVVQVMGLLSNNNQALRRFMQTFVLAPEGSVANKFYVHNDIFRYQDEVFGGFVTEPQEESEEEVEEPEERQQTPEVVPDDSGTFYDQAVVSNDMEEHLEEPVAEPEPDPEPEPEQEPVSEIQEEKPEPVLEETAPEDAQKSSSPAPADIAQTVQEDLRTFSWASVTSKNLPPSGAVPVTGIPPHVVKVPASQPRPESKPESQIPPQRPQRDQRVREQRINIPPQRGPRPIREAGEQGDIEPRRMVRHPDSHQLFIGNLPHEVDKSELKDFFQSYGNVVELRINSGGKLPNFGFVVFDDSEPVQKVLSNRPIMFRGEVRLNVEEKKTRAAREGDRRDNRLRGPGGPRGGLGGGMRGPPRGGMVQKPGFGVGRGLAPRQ
Technique: RNA Bind-n-Seq
Form: RNA
Sample: in vitro
Tested at: 200 nM
Notes: whole 134-nt RNA, ends assumed
Together with: 150 mM KCl
Relative to: input library
Direction: higher = stronger binding
Shared flanks, not repeated: GGGAGUUCUACAGUCCGACGAUC … UGGAAUUCUCGGGUGUCAAGG
Sequence	log2 enrichment
GUCCUGUGCUACACAUCGUAUGUACCGAAUCGGGGCCCCGGGCCCCGGGGCCCCGGGGAAAGUAUUAUGUUACGCCGUUCGGAUCUGCAC	-0.127
UGGGAGGUGGAUUUUGUAUAUUUUUUUAGCUCAUUUCCAGGGGUGGGAAUUUUUUUUUAAUAUGUGUCAUGAAUAAAGUUGUUUUUGAAA	0.232
UCCUGUGCUACACAUCGUAUGUACCGAAUCGGCCCCCCGGCCCCCCGGGGCCCCCCGGGAAAGUAUUAUGUUACGCCGUUCGGAUCUGCA	-0.49
CUGUGCUACACAUCGUAUGUACCGAAUCGGGGAAAAAAAGGGAAAAAAAGGAAAAAAAGGGGAAAGUAUUAUGUUACGCCGUUCGGAUCU	-0.539
CACAGACAACACGCACCCACACAGACACAGAGGGAAGGGGUUGGGAUGGGGACAGGGCGCACAGCAGGGCGGGGUAGGACCCCAGCCCCU	1.75
UGGAGAAGGAACGUGAUAAAGAAGUAAGCGAUGAUGAGGCUGAAGAAAAGGAAGACAAAGAAGAAGAAAAAGAAAAAGAAGAGAAAGAGU	0.0656
UCUCCCCAGGAGCACAGAAAAUGGUUCUGCCCCCUCCACAGCUCCCACAGACCAGAGCCGGCCACCGUUGGAGGUGAGUCGCCCGCCCCU	1.06
UGCCGAUUCGGAAGUCCUUGAGGAGCGUCAGAAGCGGCUUCCCUACGUCCCAGAGCCCUAUUACCCGGAAUCUGGAUGGGACCGCCUCCG	-0.493
CUGUGCUACACAUCGUAUGUACCGAAUCGGGGUUUUUUUGGGGUUUGGGGUUUUUUUGGGGAAAGUAUUAUGUUACGCCGUUCGGAUCUG	-0.286
AAGUCCUGUGCUACACAUCGUAUGUACCGAAUCGGGGAAAAGGAAAAGGGAAAAGGGAAAGUAUUAUGUUACGCCGUUCGGAUCUGCACU	-0.592
UGGGAGGUGGACUUUGUUUAUUUUUUUAGCUCAUUUCCAGGGGUGGGAAUUUUUUUUUAAUAUGUGUCAUGAAUAAAGUUGUUUUUGAAA	-0.251
UCAAGUCCUGUGCUACACAUCGUAUGUACCGAAUCGGGUGGGAGGGUUUUUGGGAAAGUAUUAUGUUACGCCGUUCGGAUCUGCACUUCC	0.602

Mixed results
Substance	target	test	system	setting	how to read	quantity	value
PhoQ, residues 284 288 289 292 302 303 AGGCYF	PhoP, residues 12 14 15 18 19 GQALL (Escherichia coli, UniProt P23836)	Sort-seq, refers to: YFP reporter	E. coli	PhoQ-PhoP variant library, together with: 10 µM Mg2+	relative to: high Mg2+ state, higher = stronger signaling	fold induction	15.6

For quick reference, copied from above (block 3):
Sequence	log2 enrichment
AAGUCCUGUGCUACACAUCGUAUGUACCGAAUCGGGGAAAAGGAAAAGGGAAAAGGGAAAGUAUUAUGUUACGCCGUUCGGAUCUGCACU	-0.592
UGGGAGGUGGACUUUGUUUAUUUUUUUAGCUCAUUUCCAGGGGUGGGAAUUUUUUUUUAAUAUGUGUCAUGAAUAAAGUUGUUUUUGAAA	-0.251
UCAAGUCCUGUGCUACACAUCGUAUGUACCGAAUCGGGUGGGAGGGUUUUUGGGAAAGUAUUAUGUUACGCCGUUCGGAUCUGCACUUCC	0.602
